Assay results pooled from the literature.
Each numbered part is a random draw from the data of one study; scales do not carry over between parts.

Series 1 — cell line: HEK-293T/ACE2; tested at: concentration not given; time: 16 (unit not given); relative to: vehicle; measurement: viability
COC(=O)C1=C(C)NC(C)=C(C(=O)OCC(C)C)C1c1ccccc1[N+](=O)[O-] (centres unmarked): 101%
C/C(O)=C(\C#N)C(=O)Nc1ccc(C(F)(F)F)cc1: 96.5%
CCCCC(=O)O[C@H]1CC[C@H]2[C@@H]3CCc4cc(O)ccc4[C@H]3CC[C@]12C: 104%
CC(C)(C)NC[C@H](O)COc1nsnc1N1CCOCC1: 103%

Series 2 — technique: protein-binding microarray; form: double-stranded DNA, one strand shown; matrix: in vitro; tested at: 0.8 µM; notes: whole 60-bp probe, no competitor; reading: higher = stronger binding; measurement: fluorescence intensity; constant ends, left off below: … GTCTTGATTCGCTTGACGCTGCTG
Target: Centromere-binding protein 1, full length, N-terminal tag (CBF1, Saccharomyces cerevisiae, UniProt P17106, residues 1-351)
Sequence of UniProt P17106 (whole entry, looked up): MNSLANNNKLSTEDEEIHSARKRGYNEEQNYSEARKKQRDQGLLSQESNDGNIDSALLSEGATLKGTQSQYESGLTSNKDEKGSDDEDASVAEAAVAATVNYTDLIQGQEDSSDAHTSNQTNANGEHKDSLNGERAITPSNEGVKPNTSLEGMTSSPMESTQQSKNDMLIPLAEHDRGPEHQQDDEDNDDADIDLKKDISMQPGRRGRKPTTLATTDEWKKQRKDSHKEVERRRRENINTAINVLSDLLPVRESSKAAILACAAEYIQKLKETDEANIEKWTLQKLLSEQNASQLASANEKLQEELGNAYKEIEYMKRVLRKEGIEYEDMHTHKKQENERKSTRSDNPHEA
CTATTTTGGAAGTTTCACGATATCGATAATGCTTTC: 540 a.u.
GAAAAAGCACTAGGCCAGGTGATTATACCGCAGTAG: 748 a.u.
CTATCTTTTTCTTTTCTGGTGACTAATCGGTGGTTC: 601 a.u.
GAATTAATCAAGAATGTCACCAATTTTCTGCGATAG: 494 a.u.
CTATAGACAAAAAGACACGGGACATCTTCTATCTTC: 763 a.u.
GAATTAGATGGTAAACACGTTGTCTTGATGACTTAG: 613 a.u.
GAAAGGAACCTTATCGACGTGACAGCAAAGCGGTAG: 612 a.u.
GAAAGAATGGCAAACCACATGCAAGCATCCAGTTAG: 580 a.u.

Series 3 — technique: RNA Bind-n-Seq; form: RNA; matrix: in vitro; tested at: 100 nM; relative to: input RNA pool; reading: higher = stronger binding; measurement: bound/input enrichment
Target: RING finger protein unkempt homolog, zinc fingers 1-6, SBP tag (UNK, Homo sapiens, UniProt Q9C0B0, residues 30-357)
Sequence of UniProt Q9C0B0 (30-357, looked up): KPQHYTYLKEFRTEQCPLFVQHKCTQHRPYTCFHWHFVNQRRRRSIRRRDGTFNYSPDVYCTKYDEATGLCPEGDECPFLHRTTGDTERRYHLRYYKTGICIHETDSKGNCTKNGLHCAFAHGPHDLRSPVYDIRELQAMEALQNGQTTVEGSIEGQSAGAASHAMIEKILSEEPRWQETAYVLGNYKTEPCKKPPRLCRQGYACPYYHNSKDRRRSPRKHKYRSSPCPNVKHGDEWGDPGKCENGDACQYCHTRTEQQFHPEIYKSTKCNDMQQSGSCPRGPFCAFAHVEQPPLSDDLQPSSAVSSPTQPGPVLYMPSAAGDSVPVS
Notes: RNA with constant flanks, vertebrate orthologous sites, ends assumed
Constant ends, left off below: GGGAGUUCUACAGUCCGACGAUC … CAACAGAGGAUUGAGCAUCA
UUACAGUCAUUGAUGGACUCUAUUUUUUUAUUAUUACUUGGACUUUGGUCGUUUUUAUACUAGCAAAAUGUCUUGUUUUAAUUUGUGUUUUUUUGGGGGAGGGGGAGGGAGUGAACUUGC: 1.45 ratio
GUUAGGUCAUGACCCUUACAGAUUAGGUCAUGAUGCCUACAGAUUAGGGCAAGAUCCCUAUAGAUUAGGCCAUGAUCCCUACAGACUAACUCCUGAUCCCUAUAGGAUGUCACCUAGACC: 0.286 ratio
UGGGCAUCCUCUCUGGGGAGCUGCUGGCCGCUUAGCGUUGUUUGACUUUUGACCUUGACAUAGUAGAUAGGCUUGUGGUUUUUUUAAUUUAAAGAUAUUAAGACUUAAUUCACUAAAAUU: 0.71 ratio
UGGAGCAACUCAAGGAUUGAGGACUGGUUUUACAAAUAUACCAAGUAGAUAUGGAACUAAUAGAAUUGGACAACCAAGACCAUGAUGGACUCUAACUUAUUUUUAUGAGAAAUAUUGACU: 0.395 ratio
ACUUGUUUCAUUUUAGGUAUCAUUGCCCAAUGCCCAAGAUCUUUUAUGUUCAACUGACUGUAGGAAAUAAUGAAUUUUUUGGGGAAGGGAAGACUCGACAAGCUGCUCGACAUAAUGCUG: 0.952 ratio
UAGGUCAUGACCCAUAUAGAUUAGCCCAGGAUCCCUACAGGUUAGGUCAUGACCCUUACAGGUUGGCUAGCUCCUGAUCCUUAUAGAAUGUCACCCAGGCCAUACAGGAUAGCACCCAGG: 0.453 ratio
CAAUUCAAUGGUUGAGGGUUCAGAACUCAAAAAGAUUCGGUCCAACUCUAGAAUUUACCACAGAUAUUUUUUACUGGAUGCUGACAUGCAGAGCCUAAGGUGGGAGCCAUCCAAGAAGGA: 0.179 ratio
GGGGCGGCCGGUGGGGGAAUCCCAUGCCCUGGCCGGCCACCCCUCCCUGCUAACCGCUCCUAGUUUUUUUUUUUUUUUAAACCACCAUGUGAUUAAGGUCGGCGCUGCCUCCCCCGACCC: 2.13 ratio

Series 4 — observed: enzyme activity; mode: inhibitor; tested at: 20 µM; measurement: inhibition
Target: Replicase polyprotein 1ab, polymerase (rep, Severe acute respiratory syndrome coronavirus 2, UniProt P0DTD1)
COc1ccc(C(=O)N2CCCc3cc(C4=NNC(=O)SC4C)ccc32)cc1OC (centres unmarked): 5.04%
CC1(C)CN(C(=O)c2ccc(-c3cccc4nc(NC(=O)C5CC5)nn34)cc2)C1: -4.89%
N[C@H](Cc1ccccc1)C(=O)O: -3.38%
COc1cc2c(N3CCN(C(=O)Nc4ccc(OC(C)C)cc4)CC3)ncnc2cc1OCCCN1CCCCC1: 3.08%
CCCCN1CCCCC1C(=O)Nc1c(C)cccc1C (centres unmarked): 1.44%
CC(C)(C)NC[C@H](O)c1ccc(O)c(CO)c1: 1.45%
Nc1nc(N)c2nc(-c3ccccc3)c(N)nc2n1: 0.13%
Nc1nc2c(c(N3CCNCC3)n1)CCC1=C2[C@H]2CCCC[C@H]2O1: 0.93%
COc1cc(/C=C/C(=O)O)ccc1O: -4.5%
O=C(O)C1=CCNCC1: -1.66%
Cc1cc(-c2cc(O)ccc2Cl)cc2nnc(Nc3ccc(OCCN4CCCC4)cc3)nc12: 29.4%
O=S(=O)(c1cccc2cnccc12)N1CCCNCC1: 4.65%
COc1ccc(S(=O)(=O)Nc2nc(-c3cccc([N+](=O)[O-])c3)cs2)cc1OC: -2.1%
Cc1cccc(Nc2ccncc2S(=O)(=O)NC(=O)NC(C)C)c1: -14.2%
CC[C@H]1OC(=O)[C@H](C)[C@@H](O[C@H]2C[C@@](C)(OC)[C@@H](O)[C@H](C)O2)[C@H](C)[C@@H](O[C@@H]2O[C@H](C)C[C@H](N(C)C)[C@H]2O)[C@](C)(O)C[C@@H](C)C(=O)[C@H](C)[C@@H](O)[C@]1(C)O: 6.45%
CCN(CC)CCOc1ccc2c(c1)C(=O)c1cc(OCCN(CC)CC)ccc1-2: 21.1%
Cc1[nH]c2ccc(F)cc2c1-c1nc2c3cccnc3c3ncccc3c2[nH]1: -15.9%
CC1c2ccccc2CN1CC1=NCCN1 (centres unmarked): 10.4%
CN(C)N(C)C(=O)[C@@]1(Cc2ccccc2)CCCN(C(=O)[C@@H](Cc2c[nH]c3ccccc23)NC(=O)C(C)(C)N)C1: -4.09%
Brc1c(Br)c(Br)c2n[nH]nc2c1Br: 20.8%
COc1ccc(S(=O)(=O)Nc2cc(Cl)cc(Cl)c2OC)cc1N1CCNCC1: -15.5%
Oc1cccc(-c2c3nc(c(-c4cccc(O)c4)c4ccc([nH]4)c(-c4cccc(O)c4)c4nc(c(-c5cccc(O)c5)c5ccc2[nH]5)CC4)C=C3)c1: 1.83%
COc1ccc2[nH]c([S+]([O-])Cc3ncc(C)c(OC)c3C)nc2c1 (centres unmarked): -7.82%
C[C@@H]1[C@H](O)[C@@H](C)/C=C/C=C/CC/C=C/C=C/C=C/C=C/[C@H](O[C@@H]2O[C@H](C)[C@@H](O)[C@H](N)[C@@H]2O)C[C@@H]2O[C@](O)(C[C@@H](O)[C@H](O)CC[C@@H](O)C[C@@H](O)C[C@@H](O)CC(=O)O[C@H]1C)C[C@H](O)[C@H]2C(=O)O: -0.47%
C[C@]12CCC(=O)C=C1CC[C@@H]1[C@@H]2[C@@H](O)C[C@@]2(C)[C@H]1CC[C@]2(O)C(=O)COP(=O)(O)O: 30.2%

Series 5 — observed: enzyme activity; mode: inhibitor; tested at: 20 µM; measurement: inhibition
Target: Replicase polyprotein 1ab, main protease (rep, Severe acute respiratory syndrome coronavirus 2, UniProt P0DTD1)
NC(=S)N/N=C/c1coc2ccccc2c1=O: 2.29%
C=Cc1c(C)c2cc3nc(c(CC(=O)[O-])c4[n-]c(cc5nc(cc1[n-]2)C(C)=C5CC)c(C)c4C(=O)[O-])C(CCC(=O)[O-])C3C.[Cu+2] (centres unmarked): 28.7%
CC[C@]12C=CCN3CC[C@@]4(c5cc([C@@]6(C(=O)OC)C[C@@H]7C[C@@H](C(C)(F)F)C[N@](CCc8c6[nH]c6ccccc86)C7)c(OC)cc5N(C)[C@H]4[C@@](O)(C(=O)OC)[C@@H]1OC(C)=O)[C@@H]32: -14.4%

Series 6 — technique: RNA Bind-n-Seq; form: RNA; matrix: in vitro; tested at: 365 nM; relative to: no-protein control; reading: higher = stronger binding; measurement: RBNS enrichment (R)
Target: RNA binding protein fox-1 homolog 2, RRM domain, GST-SBP tag (RBFOX2, Homo sapiens, UniProt O43251-10, residues 100-194)
Notes: natural RNA segment, single round, ends assumed
Constant ends, left off below: GGGAGUUCUACAGUCCGACGAUC … UGGAAUUCUCGGGUGCCAA
Construct (chain): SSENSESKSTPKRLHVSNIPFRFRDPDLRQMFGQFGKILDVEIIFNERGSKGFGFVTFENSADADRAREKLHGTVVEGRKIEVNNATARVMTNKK
UUCCCGGCCGUGGACCAUAGUCGGGAUGUCAGCAGACACACAUGGGCAGCCCAAAGCUGCAGGUGCCAGGGCCCACCCCAGCCUCGCCUGUCACCCCCACUCCCGCCUCA: 0.245
UUGAAUUCCUGACCUCAAAUGAUCCACGCACCUCAGCCUCCCAAAGUGCUGGAUUACAGGCAUGAGCCACCACGCCCAGCCAAAGGUUAUAAUCUGAUGGAGAGAGACAC: 0.525
CCGUUGUGGUCAGAGGAACUCUGGUGUUUGGUUCCCUGCUCAGCUGCGCGUGGACUGGGCUGAGCUCCUCACCAUACACUAGUGCCGGCUUUUGUUUCCUGUAAACAGUG: 0.71
CAAAGCAGCAGGACUGUGGGAAAGAGCCUAACAUCUCCAUGGGGAGGCCUCACCCCAGGGACAGGGCCCUGGAGCUCAGGGUCCUUGUUUCUGCCCUGCCAGCUGCAGCC: 0.234
AGGUUAGAAUGUGCAUCGCGCAUAGCCGAGCAGCCUGCUAGCAGGUGACACACUCCGUGGGGGAGGCUCUUCUCCCCUUCUUUCUCUAGUCUGGGUGGUGAACGGGCUGA: 0.456
GGAGGGCCUGUGUGAGUUACGCCCCUUUCCACACGCCGCUGCCCCAGCAACCCUGUUCACGCUCCACCUGUCUGGUCCAUAGCUCCCUGGAGGCUGGGCCAGGAGGCAGC: 0.29
CUGUCAGAGCCCUGAGGGGCAUCCAGUGGGUACAGACCCAGGCGGGCAGCGAGGGAAGGAGGGAGGAGGCAUCUUCCCUGAAGCCCCCAAACUGGACCCCUUCUUCAGAC: 0.277
GACUAUCCUGAAAAGAAAUAAUAAUCAUUUUAUGAUUGAUGGGCCAAAAAAAGCAAUCAAAGUCUUACGUCAUAGAGGACCACCUUUUGGAUCAUAAAUUCUUUCCCUAU: 0.287

Repeated from above (series 4):
N[C@H](Cc1ccccc1)C(=O)O: -3.38%
CN(C)N(C)C(=O)[C@@]1(Cc2ccccc2)CCCN(C(=O)[C@@H](Cc2c[nH]c3ccccc23)NC(=O)C(C)(C)N)C1: -4.09%
Cc1[nH]c2ccc(F)cc2c1-c1nc2c3cccnc3c3ncccc3c2[nH]1: -15.9%
Nc1nc2c(c(N3CCNCC3)n1)CCC1=C2[C@H]2CCCC[C@H]2O1: 0.93%
Brc1c(Br)c(Br)c2n[nH]nc2c1Br: 20.8%
